Measured values from different studies.
Lines come from different studies, so protocols differ. ± marks the error that the study gave.
Magi2: Membrane-associated guanylate kinase, WW and PDZ domain-containing protein 2 (Magi2, Mus musculus, UniProt Q9WVQ1)
UniProt Q9WVQ1, sequence (whole entry, looked up): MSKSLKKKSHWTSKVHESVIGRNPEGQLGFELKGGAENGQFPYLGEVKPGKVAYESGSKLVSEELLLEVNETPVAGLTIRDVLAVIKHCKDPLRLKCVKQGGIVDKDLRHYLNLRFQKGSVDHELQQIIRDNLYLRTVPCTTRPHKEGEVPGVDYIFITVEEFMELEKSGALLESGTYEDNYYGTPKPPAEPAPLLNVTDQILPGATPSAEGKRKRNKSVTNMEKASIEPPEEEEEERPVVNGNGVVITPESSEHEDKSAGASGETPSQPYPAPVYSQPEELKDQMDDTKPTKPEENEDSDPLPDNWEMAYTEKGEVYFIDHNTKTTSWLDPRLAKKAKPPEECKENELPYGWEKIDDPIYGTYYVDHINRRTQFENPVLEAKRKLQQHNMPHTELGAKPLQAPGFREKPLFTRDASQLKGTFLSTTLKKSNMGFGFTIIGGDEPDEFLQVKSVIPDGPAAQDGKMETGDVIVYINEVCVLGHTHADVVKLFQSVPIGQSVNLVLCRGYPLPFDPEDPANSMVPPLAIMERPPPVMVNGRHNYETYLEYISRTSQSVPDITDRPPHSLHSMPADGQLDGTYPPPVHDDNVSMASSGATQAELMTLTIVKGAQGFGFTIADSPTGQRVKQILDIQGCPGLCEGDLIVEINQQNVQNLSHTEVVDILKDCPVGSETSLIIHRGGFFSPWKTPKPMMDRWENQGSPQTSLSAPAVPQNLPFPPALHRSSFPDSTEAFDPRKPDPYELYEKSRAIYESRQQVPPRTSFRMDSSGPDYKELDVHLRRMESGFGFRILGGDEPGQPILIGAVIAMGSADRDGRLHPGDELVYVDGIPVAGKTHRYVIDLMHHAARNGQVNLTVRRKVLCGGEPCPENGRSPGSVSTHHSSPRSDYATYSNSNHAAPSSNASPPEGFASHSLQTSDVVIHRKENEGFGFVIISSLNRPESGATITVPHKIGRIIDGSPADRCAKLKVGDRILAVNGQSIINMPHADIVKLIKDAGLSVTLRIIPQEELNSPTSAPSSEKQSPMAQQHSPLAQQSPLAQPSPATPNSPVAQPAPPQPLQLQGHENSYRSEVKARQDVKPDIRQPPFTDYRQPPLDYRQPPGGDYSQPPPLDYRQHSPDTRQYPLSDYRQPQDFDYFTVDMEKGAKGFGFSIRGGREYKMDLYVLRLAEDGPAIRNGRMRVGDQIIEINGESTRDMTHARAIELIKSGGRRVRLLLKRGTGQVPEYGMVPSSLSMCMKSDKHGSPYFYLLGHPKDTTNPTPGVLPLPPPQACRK
Chymotrypsin-C S216A: Chymotrypsin-C (Homo sapiens, UniProt Q99895, S216A)
UniProt Q99895, sequence (whole entry, unmodified, looked up): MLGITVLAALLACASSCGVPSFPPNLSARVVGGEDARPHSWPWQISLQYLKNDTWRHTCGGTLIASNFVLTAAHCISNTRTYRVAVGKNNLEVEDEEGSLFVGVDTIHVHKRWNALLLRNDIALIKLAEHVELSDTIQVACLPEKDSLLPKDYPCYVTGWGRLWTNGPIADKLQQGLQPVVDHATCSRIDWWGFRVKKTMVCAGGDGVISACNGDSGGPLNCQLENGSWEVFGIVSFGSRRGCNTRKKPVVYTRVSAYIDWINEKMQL
14-3-3 protein epsilon: 14-3-3 protein epsilon (Homo sapiens, UniProt P62258)
UniProt P62258, sequence (whole entry, looked up): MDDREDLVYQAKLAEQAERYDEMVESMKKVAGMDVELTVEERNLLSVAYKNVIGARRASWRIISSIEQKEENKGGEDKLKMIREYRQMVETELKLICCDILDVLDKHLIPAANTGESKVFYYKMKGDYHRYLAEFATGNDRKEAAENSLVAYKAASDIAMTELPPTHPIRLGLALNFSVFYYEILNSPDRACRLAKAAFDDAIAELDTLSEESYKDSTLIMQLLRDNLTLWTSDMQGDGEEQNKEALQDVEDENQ
UniProt O95619, sequence (whole entry, looked up): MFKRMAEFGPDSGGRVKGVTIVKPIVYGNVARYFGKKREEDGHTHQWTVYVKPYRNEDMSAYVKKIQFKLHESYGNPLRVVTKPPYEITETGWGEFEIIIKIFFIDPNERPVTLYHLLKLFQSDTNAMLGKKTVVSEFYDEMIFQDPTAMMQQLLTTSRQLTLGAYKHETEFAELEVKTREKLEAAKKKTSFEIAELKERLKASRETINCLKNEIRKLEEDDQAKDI
UniProt P08069, sequence (whole entry, looked up): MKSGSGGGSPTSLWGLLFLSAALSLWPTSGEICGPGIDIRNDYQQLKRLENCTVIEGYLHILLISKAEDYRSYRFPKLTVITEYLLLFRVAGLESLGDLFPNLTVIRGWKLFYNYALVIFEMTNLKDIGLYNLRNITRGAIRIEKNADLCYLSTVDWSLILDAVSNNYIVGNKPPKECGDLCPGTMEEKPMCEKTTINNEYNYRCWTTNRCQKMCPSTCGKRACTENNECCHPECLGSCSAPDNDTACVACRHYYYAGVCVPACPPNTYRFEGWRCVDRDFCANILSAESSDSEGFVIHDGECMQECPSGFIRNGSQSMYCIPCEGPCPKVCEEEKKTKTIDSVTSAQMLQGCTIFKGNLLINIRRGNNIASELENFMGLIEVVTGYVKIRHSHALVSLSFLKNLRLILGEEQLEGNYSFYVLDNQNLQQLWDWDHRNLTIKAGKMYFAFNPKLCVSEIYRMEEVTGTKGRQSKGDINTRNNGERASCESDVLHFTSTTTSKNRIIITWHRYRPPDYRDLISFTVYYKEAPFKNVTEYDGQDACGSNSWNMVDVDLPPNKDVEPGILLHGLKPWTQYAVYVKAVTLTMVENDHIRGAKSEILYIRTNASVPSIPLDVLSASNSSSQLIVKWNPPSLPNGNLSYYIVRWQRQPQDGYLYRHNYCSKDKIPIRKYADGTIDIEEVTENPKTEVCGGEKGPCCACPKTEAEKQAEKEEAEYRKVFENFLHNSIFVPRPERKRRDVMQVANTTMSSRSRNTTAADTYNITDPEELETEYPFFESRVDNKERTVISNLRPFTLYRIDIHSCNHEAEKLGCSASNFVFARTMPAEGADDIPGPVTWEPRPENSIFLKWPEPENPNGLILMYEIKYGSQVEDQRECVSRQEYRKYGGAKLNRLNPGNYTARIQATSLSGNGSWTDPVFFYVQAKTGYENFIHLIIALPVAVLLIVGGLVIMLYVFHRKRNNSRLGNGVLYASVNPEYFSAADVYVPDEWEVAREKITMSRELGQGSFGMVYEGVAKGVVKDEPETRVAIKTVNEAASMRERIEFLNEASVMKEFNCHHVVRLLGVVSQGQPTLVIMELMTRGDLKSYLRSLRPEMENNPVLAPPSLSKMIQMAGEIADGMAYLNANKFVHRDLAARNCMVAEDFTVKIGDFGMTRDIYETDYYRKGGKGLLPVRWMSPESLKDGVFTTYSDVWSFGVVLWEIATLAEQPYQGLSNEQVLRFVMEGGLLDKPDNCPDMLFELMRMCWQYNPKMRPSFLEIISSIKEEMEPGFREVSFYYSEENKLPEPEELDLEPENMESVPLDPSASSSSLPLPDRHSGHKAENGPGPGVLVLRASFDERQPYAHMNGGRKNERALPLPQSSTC
UniProt Q9P2K8, sequence (whole entry, unmodified, looked up): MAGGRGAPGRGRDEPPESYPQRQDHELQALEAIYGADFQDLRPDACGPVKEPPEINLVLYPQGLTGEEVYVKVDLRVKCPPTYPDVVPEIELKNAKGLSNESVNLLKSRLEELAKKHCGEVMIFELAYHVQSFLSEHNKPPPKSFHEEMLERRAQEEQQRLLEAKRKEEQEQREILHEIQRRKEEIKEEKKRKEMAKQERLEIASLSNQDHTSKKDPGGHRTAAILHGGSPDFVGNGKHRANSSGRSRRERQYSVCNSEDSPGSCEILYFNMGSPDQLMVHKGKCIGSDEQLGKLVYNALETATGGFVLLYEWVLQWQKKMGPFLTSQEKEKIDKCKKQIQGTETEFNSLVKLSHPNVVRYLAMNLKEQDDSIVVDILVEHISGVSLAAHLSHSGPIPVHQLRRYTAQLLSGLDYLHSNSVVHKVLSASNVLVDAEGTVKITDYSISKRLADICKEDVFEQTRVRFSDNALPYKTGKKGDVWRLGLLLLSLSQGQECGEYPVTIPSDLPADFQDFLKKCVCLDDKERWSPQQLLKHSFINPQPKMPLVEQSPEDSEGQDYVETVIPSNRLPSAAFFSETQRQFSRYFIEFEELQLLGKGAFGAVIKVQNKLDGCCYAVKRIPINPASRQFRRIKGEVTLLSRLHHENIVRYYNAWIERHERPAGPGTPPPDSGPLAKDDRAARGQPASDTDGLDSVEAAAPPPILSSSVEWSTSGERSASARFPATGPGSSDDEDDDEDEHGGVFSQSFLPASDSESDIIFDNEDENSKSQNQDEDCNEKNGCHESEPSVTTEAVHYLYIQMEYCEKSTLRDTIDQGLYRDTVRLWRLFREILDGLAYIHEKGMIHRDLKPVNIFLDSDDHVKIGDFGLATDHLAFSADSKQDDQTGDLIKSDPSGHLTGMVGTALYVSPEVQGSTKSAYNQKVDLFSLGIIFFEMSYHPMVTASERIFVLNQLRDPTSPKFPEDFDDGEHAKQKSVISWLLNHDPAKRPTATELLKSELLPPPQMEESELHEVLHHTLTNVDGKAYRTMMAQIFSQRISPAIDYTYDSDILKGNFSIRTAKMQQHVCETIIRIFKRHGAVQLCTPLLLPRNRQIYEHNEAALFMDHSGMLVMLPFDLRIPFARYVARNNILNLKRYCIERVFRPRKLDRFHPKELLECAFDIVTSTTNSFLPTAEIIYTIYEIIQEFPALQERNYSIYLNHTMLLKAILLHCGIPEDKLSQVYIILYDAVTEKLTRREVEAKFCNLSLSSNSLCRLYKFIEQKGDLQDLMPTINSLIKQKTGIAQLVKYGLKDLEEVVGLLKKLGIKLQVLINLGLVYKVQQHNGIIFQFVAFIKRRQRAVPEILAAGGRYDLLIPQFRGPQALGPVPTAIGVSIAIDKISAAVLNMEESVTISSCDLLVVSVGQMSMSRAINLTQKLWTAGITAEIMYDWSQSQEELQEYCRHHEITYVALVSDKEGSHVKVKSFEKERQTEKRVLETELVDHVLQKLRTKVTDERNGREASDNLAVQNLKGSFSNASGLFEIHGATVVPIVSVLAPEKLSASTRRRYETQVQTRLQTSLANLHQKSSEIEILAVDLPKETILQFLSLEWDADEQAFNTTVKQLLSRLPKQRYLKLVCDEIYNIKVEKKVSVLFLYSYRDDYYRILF

SMILES | target | test | test system | setting | Kd
CC[C@H](C)[C@H](NC(=O)[C@H](CCC(=O)O)NC(=O)[C@H](CC(C)C)NC(=O)[C@H](Cc1ccc(O)cc1)NC(=O)[C@H](CCSC)NC(=O)[C@H](CC(=O)O)NC(=O)[C@H](CCC(=O)O)NC(=O)[C@H](CCC(=O)O)NC(=O)[C@H](CC(C)C)NC(=O)[C@@H](N)CC(N)=O)C(=O)N[C@@H](CC(N)=O)C(=O)N[C@@H](CC(=O)O)C(=O)N[C@@H](CC(C)C)C(=O)N[C@@H](CCSC)C(=O)N[C@@H](CCC(=O)O)C(=O)N1CCC[C@H]1C(=O)N[C@@H](CCC(=O)O)C(=O)N1CCC[C@H]1C(=O)N[C@@H](CCC(=O)O)C(=O)N1CCC[C@H]1C(=O)N[C@H](C(=O)O)[C@@H](C)O | RCD1 (Arabidopsis thaliana, UniProt Q8RY59) | ITC |  | salt 50 mM | 43.6 nM
CC(C)C[C@H](NC(=O)[C@H](CO)NC(=O)[C@@H]1CCCN1C(=O)[C@H](CCC(N)=O)NC(=O)[C@H](Cc1ccccc1)NC(=O)[C@H](C)NC(=O)[C@H](CCCCN)NC(=O)[C@H](CC(C)C)NC(=O)[C@H](Cc1ccc(O)cc1)NC(=O)[C@H](COP(=O)(O)O)NC(=O)[C@H](CCC(=O)O)NC(=O)[C@H](CCCNC(=N)N)NC(=O)[C@H](CCCNC(=N)N)NC(=O)[C@H](C)NC(=O)[C@H](C)N)C(=O)O | Magi2 | ITC |  | pH 8.0, 25 °C, added: tandem peptide | 70 nM
CC(=O)NCCCC[C@H](NC(=O)[C@H](CCCNC(=N)N)NC(=O)[C@H](C)NC(=O)[C@H](C)NC(=O)[C@H](CCCCN)NC(=O)[C@@H](N)[C@@H](C)O)C(=O)N[C@@H](CO)C(=O)N[C@@H](C)C(=O)N1CCC[C@H]1C(=O)N[C@@H](C)C(=O)N[C@H](C(=O)O)[C@@H](C)O | YEATS domain-containing protein 4, YEATS domain (Homo sapiens, UniProt O95619) | isothermal titration calorimetry |  | pH 7.6, 25 °C, added: histone peptide | 68000 ± 3500 nM
CSCC[C@@H]1NC(=O)[C@H](Cc2ccccc2)NC(=O)[C@H]([C@@H](C)O)NC(=O)[C@@H]2CSSC[C@@H]3NC(=O)[C@H]([C@@H](C)O)NC(=O)[C@H](CC(N)=O)NC(=O)[C@H](CSSC[C@@H](C(=O)N[C@@H](CC(=O)O)C(=O)N[C@@H](CCC(N)=O)C(=O)O)NC(=O)[C@H](CC(C)C)NC1=O)NC(=O)[C@H](CCCCN)NC(=O)[C@H](CC(=O)O)NC(=O)[C@H](CCCCN)NC(=O)[C@H](Cc1ccccc1)NC(=O)[C@H]([C@@H](C)O)NC(=O)[C@H]([C@@H](C)O)NC(=O)CNC(=O)[C@@H]1CCCN1C(=O)[C@H](CCC(=O)O)NC(=O)[C@@H](NC(=O)[C@@H](NC(=O)[C@@H](NC(=O)[C@H](CCC(=O)O)NC(=O)[C@H](CO)NC(=O)CN)C(C)C)[C@@H](C)O)CSSC[C@H](NC(=O)[C@H](CCCNC(=N)N)NC3=O)C(=O)NCC(=O)N[C@@H](CO)C(=O)N[C@@H](CC(=O)O)C(=O)NCC(=O)N[C@@H](CCCCN)C(=O)N[C@@H](CO)C(=O)N[C@@H](C)C(=O)N[C@@H](Cc1ccc(O)cc1)C(=O)N2 | Chymotrypsin-C S216A | competitive fluorescence polarization |  | 24 h, pH 8.0, added: FITC-labelled tracer | 6.38 ± 1.02 nM
CC(C)C[C@H](NC(=O)[C@H](CO)NC(=O)[C@@H]1CCCN1C(=O)[C@H](CCC(N)=O)NC(=O)[C@@H](NC(=O)[C@H](C)NC(=O)[C@H](CCCCN)NC(=O)[C@H](CC(C)C)NC(=O)[C@H](Cc1ccc(O)cc1)NC(=O)[C@H](COP(=O)(O)O)NC(=O)[C@H](CCC(=O)O)NC(=O)[C@H](CCC(=O)O)NC(=O)[C@H](CCCNC(=N)N)NC(=O)[C@H](C)NC(=O)[C@H](C)N)[C@@H](C)O)C(=O)O | Magi2 | ITC |  | pH 8.0, 25 °C, added: tandem peptide | 4000 ± 100 nM
CC(C)C[C@H](NC(=O)[C@H](CCCNC(=N)N)NC(=O)[C@H](CC(C)C)NC(=O)[C@H](CO)NC(=S)Nc1ccc2c(c1)C(=O)OC21c2ccc(O)cc2Oc2cc(O)ccc21)C(=O)N[C@@H](CCCCN)C(=O)N[C@@H](CS)C(=O)NCC(=O)N[C@@H](CCP(=O)(O)O)C(=O)NCC(=O)N1CCC[C@H]1C(=O)N[C@H](C(=O)N[C@@H](Cc1c[nH]c2ccccc12)C(=O)N[C@@H](CC(C)C)C(=O)N[C@H](C(=O)N1CCC[C@H]1C(=O)N[C@@H](CCCNC(=N)N)C(=O)O)C(C)C)C(C)C | 14-3-3 protein eta (Homo sapiens, UniProt Q04917) | binding, fluorescence anisotropy |  | pH 7.5, FITC-labelled phosphopeptide titration | 28200 nM
CC(=O)N[C@@H](CCCNC(=N)N)C(=O)N[C@H](C(=O)N[C@@H](CCCCN)C(=O)N[C@@H](CO)C(=O)N[C@@H](CCCNC(=N)N)C(=O)N[C@H](C(=O)N[C@@H](Cc1c[nH]c2ccccc12)C(=O)N[C@@H](C)C(=O)N[C@@H](Cc1c[nH]c2ccccc12)C(N)=O)[C@@H](C)OP(=O)(O)O)[C@@H](C)O | 14-3-3 protein epsilon | binding, SPR |  |  | 85.4 nM
CSCC[C@@H]1NC(=O)[C@H](Cc2ccccc2)NC(=O)[C@H]([C@@H](C)O)NC(=O)[C@@H]2CSSC[C@@H]3NC(=O)[C@H]([C@@H](C)O)NC(=O)[C@H](CC(N)=O)NC(=O)[C@H](CSSC[C@@H](C(=O)N[C@@H](CC(=O)O)C(=O)N[C@@H](CCC(N)=O)C(=O)O)NC(=O)[C@H](CC(C)C)NC1=O)NC(=O)[C@H](CCCCN)NC(=O)[C@H](CC(=O)O)NC(=O)[C@H](CCCCN)NC(=O)[C@H](Cc1ccccc1)NC(=O)[C@H]([C@@H](C)O)NC(=O)[C@H]([C@@H](C)O)NC(=O)CNC(=O)[C@@H]1CCCN1C(=O)[C@H](CCC(=O)O)NC(=O)[C@@H](NC(=O)[C@@H](NC(=O)[C@@H](NC(=O)[C@H](CCC(=O)O)NC(=O)[C@H](CO)NC(=O)CN)C(C)C)[C@@H](C)O)CSSC[C@H](NC(=O)[C@H](CCCNC(=N)N)NC3=O)C(=O)NCC(=O)N[C@@H](CO)C(=O)N[C@@H](CC(=O)O)C(=O)NCC(=O)N[C@@H](CCCCN)C(=O)N[C@@H](CO)C(=O)N[C@@H](C)C(=O)N[C@@H](C)C(=O)N2 | Chymotrypsin-C (Homo sapiens, UniProt Q99895) | cell-free assay, FP |  | pH 8 | 0.61 nM
CC(C)C[C@H](NC(=O)[C@H](CC(=O)O)NC(=O)[C@H](CC(=O)O)NC(=O)[C@@H](NC(=O)[C@H](Cc1c[nH]c2ccccc12)NC(=O)CNC(=O)[C@H](CCCNC(=N)N)NC(=O)[C@@H](N)CCCCN)[C@@H](C)O)C(=O)N[C@@H](CS)C(=O)N[C@@H](Cc1ccc(O)cc1)C(=O)NCC(=O)N[C@H](C(=O)NCC(=O)N[C@@H](C)C(=O)O)[C@@H](C)O | TIM13/TIM8 (Saccharomyces cerevisiae, UniProt P53299+P57744) | binding, SPR |  | added: immobilized Tim23 peptides | 393000 nM
CC(C)C[C@@H]1NC(=O)[C@H](CC(C)C)NC(=O)[C@H](CC(C)C)NC(=O)[C@H]([C@@H](C)O)NC(=O)[C@@H]2CSSC[C@@H]3NC(=O)[C@H]([C@@H](C)O)NC(=O)[C@H](CC(N)=O)NC(=O)[C@H](CSSC[C@@H](C(=O)N[C@@H](CC(=O)O)C(=O)N[C@@H](CCC(N)=O)C(=O)O)NC1=O)NC(=O)[C@H](CCCCN)NC(=O)[C@H](CC(=O)O)NC(=O)[C@H](CCCCN)NC(=O)[C@H](Cc1ccccc1)NC(=O)[C@H]([C@@H](C)O)NC(=O)[C@H]([C@@H](C)O)NC(=O)CNC(=O)[C@@H]1CCCN1C(=O)[C@H](CCC(=O)O)NC(=O)[C@@H](NC(=O)[C@@H](NC(=O)[C@@H](NC(=O)[C@H](CCC(=O)O)NC(=O)[C@H](CO)NC(=O)CN)C(C)C)[C@@H](C)O)CSSC[C@H](NC(=O)[C@H](CCCNC(=N)N)NC3=O)C(=O)NCC(=O)N[C@@H](CO)C(=O)N[C@@H](CC(=O)O)C(=O)NCC(=O)N[C@@H](CCCCN)C(=O)N[C@@H](CO)C(=O)N[C@@H](C)C(=O)N[C@@H](Cc1c[nH]c3ccccc13)C(=O)N2 | Chymotrypsin-C S216A | competitive fluorescence polarization |  | 24 h, pH 8.0, added: FITC-labelled tracer | 3.62 ± 0.41 nM
CC(=O)NCC(=O)N[C@@H](Cc1ccccc1)C(=O)N[C@@H](Cc1ccccc1)C(=O)N[C@@H](Cc1ccc(O)cc1)C(=O)NCC(=O)N[C@@H](Cc1ccc(O)cc1)C(=O)NCC(=O)N[C@@H](CO)C(=O)N[C@@H](CO)C(=O)N[C@@H](CO)C(=O)N[C@@H](CCCNC(=N)N)C(=O)N[C@@H](CCCNC(=N)N)C(=O)N[C@@H](C)C(=O)N1CCC[C@H]1C(=O)N[C@@H](CCC(N)=O)C(=O)N[C@H](C(=O)O)[C@@H](C)O | IGF1R (Homo sapiens, UniProt P08069) | binding, MST |  |  | 27.7 nM
O=C(N[C@@H]1c2ccccc2C[C@H]1N1CCCC1)c1ccc(-c2ccnc3[nH]ccc23)nc1 | eIF-2-alpha kinase GCN2, C-terminal kinase domain (EIF2AK4, Homo sapiens, UniProt Q9P2K8, S808G) | binding, competition with immobilised ligand |  |  | 2050 nM
CC(=O)N[C@@H](CCCNC(=N)N)C(=O)N[C@H](C(=O)N[C@@H](CCCCN)C(=O)N[C@@H](CO)C(=O)N[C@@H](CCCNC(=N)N)C(=O)N[C@H](C(=O)N[C@@H](Cc1c[nH]c2ccccc12)C(=O)N[C@@H](C)C(=O)N[C@@H](Cc1ccc(O)cc1)C(N)=O)[C@@H](C)OP(=O)(O)O)[C@@H](C)O | 14-3-3 protein epsilon | binding, SPR |  |  | 83.6 nM
CC[C@@H](C)[C@@H](NC(=O)[C@@H](CCC(N)=O)NC(=O)[C@H](NC(=O)[C@H]1CCCN1C(=O)[C@H](NC(=O)[C@@H](CO)NC(=O)[C@@H](Cc1ccccc1)NC(=O)[C@H]1CCCN1C(=O)[C@@H](CCC(N)=O)NC(=O)[C@H](N)CCSC)[C@H](C)CC)C(C)C)C(=O)N[C@@H](C(=O)N[C@H](CC(C)C)C(=O)N[C@H](CCC(N)=O)C(=O)NCC(=O)N[C@H](CO)C(=O)N[C@H](CCCNC(=N)N)C(=O)N[C@H](CCCNC(=N)N)C(=O)N[C@H](CCCNC(=N)N)C(=O)N[C@H](CCC(N)=O)C(=O)NCC(=O)N[C@H](CCCNC(=N)N)C(N)=O)[C@H](C)O | Kcnma1 (Mus musculus, UniProt Q08460) | ion current, blocker, inside-out patch clamp | Xenopus oocytes | +100 mV, added: 10 µM cytosolic Ca2+ | 3100 nM

For quick reference, copied from above:
SMILES | target | test | test system | setting | Kd
CC(=O)N[C@@H](CCCNC(=N)N)C(=O)N[C@H](C(=O)N[C@@H](CCCCN)C(=O)N[C@@H](CO)C(=O)N[C@@H](CCCNC(=N)N)C(=O)N[C@H](C(=O)N[C@@H](Cc1c[nH]c2ccccc12)C(=O)N[C@@H](C)C(=O)N[C@@H](Cc1c[nH]c2ccccc12)C(N)=O)[C@@H](C)OP(=O)(O)O)[C@@H](C)O | 14-3-3 protein epsilon | binding, SPR |  |  | 85.4 nM
CSCC[C@@H]1NC(=O)[C@H](Cc2ccccc2)NC(=O)[C@H]([C@@H](C)O)NC(=O)[C@@H]2CSSC[C@@H]3NC(=O)[C@H]([C@@H](C)O)NC(=O)[C@H](CC(N)=O)NC(=O)[C@H](CSSC[C@@H](C(=O)N[C@@H](CC(=O)O)C(=O)N[C@@H](CCC(N)=O)C(=O)O)NC(=O)[C@H](CC(C)C)NC1=O)NC(=O)[C@H](CCCCN)NC(=O)[C@H](CC(=O)O)NC(=O)[C@H](CCCCN)NC(=O)[C@H](Cc1ccccc1)NC(=O)[C@H]([C@@H](C)O)NC(=O)[C@H]([C@@H](C)O)NC(=O)CNC(=O)[C@@H]1CCCN1C(=O)[C@H](CCC(=O)O)NC(=O)[C@@H](NC(=O)[C@@H](NC(=O)[C@@H](NC(=O)[C@H](CCC(=O)O)NC(=O)[C@H](CO)NC(=O)CN)C(C)C)[C@@H](C)O)CSSC[C@H](NC(=O)[C@H](CCCNC(=N)N)NC3=O)C(=O)NCC(=O)N[C@@H](CO)C(=O)N[C@@H](CC(=O)O)C(=O)NCC(=O)N[C@@H](CCCCN)C(=O)N[C@@H](CO)C(=O)N[C@@H](C)C(=O)N[C@@H](C)C(=O)N2 | Chymotrypsin-C (Homo sapiens, UniProt Q99895) | cell-free assay, FP |  | pH 8 | 0.61 nM
